Assay results collected from several papers.
Numbered parts are unrelated; each lists some results of a single study. Changes are numbered by the printed parent chain.

Set 1
Target: RNA binding protein fox-1 homolog 2, RRM domain, GST-SBP tag (RBFOX2, Homo sapiens, UniProt O43251-10, residues 100-194)
Method: RNA Bind-n-Seq
Molecule type: RNA
Matrix: in vitro
Tested at: 365 nM
Setting: natural RNA segment, single round, ends assumed
Relative to: no-protein control
Reading: higher = stronger binding
Residues (chain): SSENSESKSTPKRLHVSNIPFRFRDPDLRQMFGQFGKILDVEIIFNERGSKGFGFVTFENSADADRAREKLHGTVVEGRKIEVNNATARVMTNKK
Under “RBNS enrichment (R)”, `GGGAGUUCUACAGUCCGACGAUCGAACCAGACUGAAAGCUUCAGAGCAAUAAUGUGACUGAAAACUUAUUUAAAGUUAGCUUCUUUCCACUUCUGUGUGUGCUUGUGUGAUUUCAUUGUUUUAAUCAAGGGCUUGGAAUUCUCGGGUGCCAA` is recorded as 0.62.
For `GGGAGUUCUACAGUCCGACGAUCCACCAGCUGUGAAUUCUCCUGCAGACAGGAGGGCCCUGGCUGUGCACCUGGGGAAGUGGUUGCCCUGGGGCCAGGGUGCUUGUUCUGUUCAAAUAAAGGUACCUCUUUUCUGGAAUUCUCGGGUGCCAA`, “RBNS enrichment (R)” read 1.88.
Under “RBNS enrichment (R)”, `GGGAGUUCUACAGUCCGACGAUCGAAGGCUUGAUAAAUUUUUAACAAAGUUUGUACAUUUUUUAUGAAAGUUACUAGUAAUGCUUUACUAAGUAGUGCAAUGAAUUUUUAUUUUUAAUCCCUGUGCCCAAUUUUGGAAUUCUCGGGUGCCAA` is recorded as 0.773.
`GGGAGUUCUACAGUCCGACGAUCACUGAGCAUGCAACGCUGCUGCCGUCCUUGUCUGUGGUUUCAGUUUGUAAAACUGCUAAGCCAUUCUCAUGCACAUGGGUGAAUGACAUUUCCUAGGAACGGUCUCUGACUGGAAUUCUCGGGUGCCAA`: “RBNS enrichment (R)” 2.8.
Under “RBNS enrichment (R)”, `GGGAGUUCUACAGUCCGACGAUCUAACCCUGACACAGGCAGCUGCUGACCGGCCGCCUGUGUCCUGUGUCCGUCCAUUCUGGGCCACAGCCAUGAGAUGCCCCUCCUGCUGUGAAGGUAGCUGUGCGCUGGCUUGGAAUUCUCGGGUGCCAA` is recorded as 0.277.
`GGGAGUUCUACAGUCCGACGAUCCCGCCAGGAGCUCAGGAAGGAUACAGCCACUGUCGCAGGGGAAAGUGUUUGCUUCCCGUGGAGCCAAGCGCCCAAGACUCUCCGUAUCCUUCACCCUGACAGUUUAACUUUGGAAUUCUCGGGUGCCAA` — result for “RBNS enrichment (R)”: 0.26.
Under “RBNS enrichment (R)”, `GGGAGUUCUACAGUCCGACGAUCAGUGACAGUUACUGCCCAGGGUCCAGCCAAGGACAGGUACAGGAAGGCAGAGAUCACUAUAGAGCCAAAAAUGACUGAAACUGAAGCAUCCAUCUGCUUCUCCAUUCCCUUGGAAUUCUCGGGUGCCAA` is recorded as 0.273.
`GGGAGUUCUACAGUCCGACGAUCUGUUAGAAAAAAAUGUGAUUUAACUAGAACUUGCUGUCUGAUGUUAGCAAAUCAUGGAAUGUUCUGAGUCCCUGAGGGUUUACUGUGAAGUGCUGAGGACAGUGUUGACAUGGAAUUCUCGGGUGCCAA`: “RBNS enrichment (R)” 2.03.
Under “RBNS enrichment (R)”, `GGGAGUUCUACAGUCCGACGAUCUGUGAAACACGACAUGAUCAAAGGAGACAGACAGUAUUUUGACUAAUAUGAAGUAGAGAUUACUUUACACUACAUUGUACAUGGAGUAAUUCAACUGAAUAAAAGUGUCAUGGAAUUCUCGGGUGCCAA` is recorded as 0.372.

Set 2
Target: RING finger protein unkempt homolog, zinc fingers 1-6, GST-SBP tag (UNK, Homo sapiens, UniProt Q9C0B0, residues 30-357)
Chain of UniProt Q9C0B0 (30-357, looked up): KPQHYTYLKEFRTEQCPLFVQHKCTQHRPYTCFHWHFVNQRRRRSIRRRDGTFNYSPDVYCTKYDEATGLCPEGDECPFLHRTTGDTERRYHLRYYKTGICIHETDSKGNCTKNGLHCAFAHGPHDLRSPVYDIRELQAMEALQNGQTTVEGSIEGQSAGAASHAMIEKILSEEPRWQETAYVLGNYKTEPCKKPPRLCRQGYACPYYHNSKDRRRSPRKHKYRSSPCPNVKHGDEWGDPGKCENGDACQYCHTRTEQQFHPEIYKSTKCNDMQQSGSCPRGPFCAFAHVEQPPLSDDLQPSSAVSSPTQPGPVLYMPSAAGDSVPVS
Method: RNA Bind-n-Seq
Molecule type: RNA
Matrix: in vitro
Tested at: not given
Setting: RNA with constant flanks, human and mouse sites, ends assumed
Relative to: input RNA pool
Reading: higher = stronger binding
With `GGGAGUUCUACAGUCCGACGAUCGAAAAUGAAUUACAGAUUGAACAGGAAAAUGAAAAACAGCUGAAGGAUCAACUUCAAGAAAUAAGACAGAAAAUAACAGAAUGUGAAAACAAAUUAAAGGACUAUUUGGCACAGAUCCGGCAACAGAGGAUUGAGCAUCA` the bound/input enrichment was 0.626 ratio.
The bound/input enrichment of `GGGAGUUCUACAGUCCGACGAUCCUGCCCUACGUGCUGUGGCUGCUCAUAACCGCCCAGAUCUUCUCCUACCUGGGCCUGAACUUCGCGCGUGCCCACGCGGCUAGUGACACGGUGGGCUGGCAGGUCUUCUUUGUCUUCUCCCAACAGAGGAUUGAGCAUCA` is reported as 0.211 ratio.
For `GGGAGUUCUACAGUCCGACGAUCUGUCUUGCUUUUCACCCAACAGAACAGAUCCUGGCCUCGGGCUCAAGGGAUUAUACUCUGAAAUUGUUCGAUUAUUCCAAACCGUCUGCAAAAAGAGCUUUCAAAUACAUUCAGGAAGCCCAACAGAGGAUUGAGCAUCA`, the bound/input enrichment was 0.174 ratio.
The bound/input enrichment of `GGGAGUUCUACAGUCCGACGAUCACAAUCCUGUCCCAUGGUAUUUAACAUAAAAAAAAAUAAAACUGUUAACAGAUUCUUGCUCGAUAGCUUGUUUGUGUCUGUCGUGUUAUUAGAGGGAACUCCACUAUAUAUGGUCACUUGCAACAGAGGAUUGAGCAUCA` is reported as 0.532 ratio.
`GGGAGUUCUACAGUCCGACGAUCGCCCCAGAGCACAAGAAAACCCAAAGUGGAGAGAGGGGAAGAAAGAAAGCACUGAGUCAUCCAUCCAGAAGGGGGGAGAGCAGAGCGCAGCCGCCCAGGCAGGAGCAUCAGCCAGCGAUACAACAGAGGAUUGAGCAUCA` has a bound/input enrichment of 0.299 ratio.
For `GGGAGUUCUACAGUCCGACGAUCGAUGACAUCCACCGCUCCCUCAUGGUUGACCAUGUGACUGAGGUCAGUCAGUGGAUGGUAGGAGUUAAAAGAUUAAUUGCAGAAAAGAGGAGUCUGUUUUCAGAGGAGGCAGCCAAUGAACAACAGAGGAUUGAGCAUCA`, the bound/input enrichment was 0.881 ratio.
`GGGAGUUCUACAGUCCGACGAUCAUGAAGGAGGCGUUUGGCUUUAUCGAAAGAGGUGAUGUUGUAAAAGAGAUAUUCUUUCACUAUAGUGAAUUUAAAGGUGACCUAGAAACCCUACAGCCUGGAGAUGACGUGGAAUUCACACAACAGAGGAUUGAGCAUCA` gave a bound/input enrichment of 0.407 ratio.
`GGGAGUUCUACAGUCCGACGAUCCUGAGGAGUUGAGGGUUAUUGACACUAGAGAAAUGAAUUCUCAUUUGAUCCUAAUUUUCCCCGUAUUCUACUUGAACACAUUAAAAAUACUCUGCUGCCUAUACAAUGUAAACCUAGGAGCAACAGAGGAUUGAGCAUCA` gave a bound/input enrichment of 0.416 ratio.
With `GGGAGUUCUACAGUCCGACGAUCCAGACGAUUGCACGGAAUGCACUUAAGCAGGAAACGGAGGUGGAGCUGUACAACGAAUUUCCUGAACCUAUCAAACUGGACAAGAAUGACCGGGCCAAGGCCUCGGCAGAAAGCUGCAGUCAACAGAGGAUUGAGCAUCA` the bound/input enrichment was 0.0744 ratio.
`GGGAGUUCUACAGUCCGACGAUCUGUAUUGACCAAAGUUUUGCAGCUCUACUAUAUUCUGUGCUCAGGACUAAAAUGCUGUUAAUUUUUUUUUUUUUUUCCAGUGCUGUGCAUAUAUUCUGUGAUGGGAAACAUUGUUGAUGUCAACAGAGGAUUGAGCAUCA` gave a bound/input enrichment of 0.376 ratio.
`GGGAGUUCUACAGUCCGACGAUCAUAGAUAUAAAAUUUCCUCCCAAGAUGAAUCAUCCAGAUCUUCUGAUACAAGUGCUUGGAAUUCUGAAAAAAAGUGCAUUAUAUAUAGAUGUGGAAUCUGAUUUUCAUGCUAAAGUUCCUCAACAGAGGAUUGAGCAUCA` gave a bound/input enrichment of 1.05 ratio.

Set 3
Target: Histone acetyltransferase KAT6A, winged helix 2, GST fusion (KAT6A, Homo sapiens, UniProt Q92794, residues 85-181)
Method: protein binding microarray
Molecule type: double-stranded DNA, one strand shown
Matrix: in vitro
Tested at: not given
Setting: 8-mer, flanks averaged, mean of 2 arrays, mostly near background
Relative to: not given
Reading: higher = stronger binding
Residues (chain): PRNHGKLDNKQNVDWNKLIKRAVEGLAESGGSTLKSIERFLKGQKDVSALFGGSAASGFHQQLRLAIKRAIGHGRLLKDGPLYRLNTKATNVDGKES
`CAGGCGCG` has an E-score of 0.139.
`CAGCCTTA` gave an E-score of -0.101.
For `GAGGAGGC`, the E-score was -0.0273.
`ATGTTCAC` has an E-score of -0.0865.
`ACGAATTA` gave an E-score of 0.0184.
For `AAACGTCG`, the E-score was -0.0897.
`ACTGACGA` gave an E-score of -0.0236.
The E-score of `GTATAAAA` is reported as 0.211.
For `GTGCCCTA`, the E-score was -0.174.
The E-score of `GAGACTAA` is reported as -0.0737.
`AAACTCCC` has an E-score of 0.0103.
With `AGACACGC` the E-score was 0.107.
For `CAACGACG`, the E-score was -0.0478.
The E-score of `AAAGCGAT` is reported as 0.0635.
`CGTTAAGC` has an E-score of 0.0001.
`AATTGCAT` gave an E-score of -0.0188.
`AGGGCACG` has an E-score of -0.0941.
`GTAGCCTA` has an E-score of -0.118.
`CAAGCGGG` has an E-score of 0.106.
The E-score of `CTAGTCTC` is reported as -0.234.
With `CGGTCTTA` the E-score was -0.198.
`ACATCGCA` gave an E-score of -0.124.

Set 4
Target: FOS, bZIP domain (human)
Method: DHFR protein complementation
Matrix: yeast
Setting: single substitutions, most at no-binding floor
Relative to: wild-type JUN-FOS pair
Reading: higher = stronger binding
Parent: JUN, bZIP domain (human); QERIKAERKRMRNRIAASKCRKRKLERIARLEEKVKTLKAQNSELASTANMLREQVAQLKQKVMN; partner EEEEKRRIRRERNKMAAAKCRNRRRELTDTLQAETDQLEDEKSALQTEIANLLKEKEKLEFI
The binding fitness of `L45R` is reported as -1.14 natural log.
With `E44R` the binding fitness was -0.152 natural log.
With `A57V` the binding fitness was -0.183 natural log.
The binding fitness of `S47T` is reported as -0.0352 natural log.
`A57Y` gave a binding fitness of -0.168 natural log.
`L38K` has a binding fitness of -1.23 natural log.
For `N42Y`, the binding fitness was -1.03 natural log.
For `R30Y`, the binding fitness was 0.0214 natural log.
`T48R` gave a binding fitness of 0.0614 natural log.
The binding fitness of `A46R` is reported as 0.116 natural log.
`L38G` has a binding fitness of -1.2 natural log.
With `E44F` the binding fitness was -0.33 natural log.
With `V35W` the binding fitness was -0.526 natural log.
With `Q55V` the binding fitness was -0.0496 natural log.
`L52F` gave a binding fitness of -1.18 natural log.
For `E54A`, the binding fitness was -0.129 natural log.
`L52T` gave a binding fitness of -0.986 natural log.

Some of these lines once more (set 3):
With `AGACACGC` the E-score was 0.107.
`ACTGACGA` gave an E-score of -0.0236.
`CAGCCTTA` gave an E-score of -0.101.
`AGGGCACG` has an E-score of -0.0941.
For `CAACGACG`, the E-score was -0.0478.
